Published values gathered from unrelated publications.
Each line is one published result; not all experiments were run side by side.
Cell line: NCI-H226

O=C(CCl)c1ccccc1Nc1cccc(C(F)(F)F)c1 has a GI50 of 5090 nM (cell growth or viability, CCK-8; 72 h).
The TGI of C1=[N+]2CCCC[N+]3=Cc4ccc5[n]4[Au-]23[n]2c1ccc2-c1nc2ccccc2nc1-5.F[P-](F)(F)(F)(F)F is reported as 4.29 -log M (NCI60 five-dose screen).
The IC50 of CC(C)(C)c1cnc(CSc2cnc(NC(=O)C3CCN(C(=O)CCCCCCN4Cc5cc6c(cc5C4)C(=O)N(C4CCC(=O)NC4=O)C6=O)CC3)s2)o1 (centres unmarked) is reported as 93.6 nM (cell growth or viability, MTT).
For CCCCCCCCCCCCCCCCCCOc1ccccc1CCOP(=O)([O-])OCC[N+](C)(C)C, the inhibition was 10.9% (cell growth or viability, SRB; 10 µM).
CNS(=O)(=O)Nc1nccc(Cc2c(C)c3ccc(Oc4ncccc4F)cc3oc2=O)c1F has an IC50 of over 1000 nM (cell viability; 7 days).
For CN(C)CCN1CCN(c2ccc3nc(-c4ccc5nc(-c6ccc(C(F)(F)F)cc6)[nH]c5c4)[nH]c3c2)CC1, the growth percent was 64.2% (cell growth, NCI-60 SRB; 10 µM).
For Cc1ccc(C(=O)/C=C/c2ccccc2)s1, the inhibition was 6.2% (cell growth or viability, SRB; 10 µM).
With O=C(Nc1nnc2c1c(-c1ccc(Cl)cc1)nc1sc(=Cc3ccco3)c(=O)n12)c1ccccc1 (mixture of isomers) the cell growth was 23.8% (SRB; 10 µM, NCI60 single-dose screen; baseline: untreated).

Some of these lines once more:
With O=C(Nc1nnc2c1c(-c1ccc(Cl)cc1)nc1sc(=Cc3ccco3)c(=O)n12)c1ccccc1 (mixture of isomers) the cell growth was 23.8% (SRB; 10 µM, NCI60 single-dose screen; baseline: untreated).
